Experimental data from different studies.
Compare with care: the assays were run in different laboratories. Numbers after ± are the reported error.

Compound	assay	system	setting	Tmax [min]
O=C(O)[C@H]1O[C@@H](Oc2cc3oc(-c4ccccc4)cc(=O)c3c(O)c2O)[C@H](O)[C@@H](O)[C@@H]1O	–	Sprague Dawley rat, plasma	oral, 3.34 g lyophilized powder/kg, low dose	235 ± 115
C#Cc1ccc2c(c1)C(c1ccccn1)=NCc1c(-c3cnco3)ncn1-2	–	Sprague Dawley rat, plasma	oral, 2 mg/kg, cassette dosing	~60
CC1(C)[C@@H](O)CC[C@]2(C)[C@H]3C(=O)C=C4[C@@H]5C[C@@](C)(C(=O)O)CC[C@]5(C)CC[C@@]4(C)[C@]3(C)CC[C@@H]12	–	Sprague Dawley rat, plasma	oral, 10 g lyophilized powder/kg, high dose	352 ± 87.6
COC(=O)[C@H]1[C@@H](OC(=O)c2ccccc2)C[C@@H]2CC[C@H]1N2	LC-MS/MS	Sprague-Dawley rat, whole blood	intraperitoneal, 20 mg/kg of cocaine	11.9 ± 1.89
O=C1C[C@@H](c2ccc(O[C@@H]3O[C@H](CO)[C@@H](O)[C@H](O)[C@H]3O)cc2)Oc2cc(O)ccc21	–	Sprague Dawley rat, plasma	oral, 3.34 g lyophilized powder/kg, low dose	19.8 ± 19.2
CCc1cc(OC)cc2c(/C=N/NC(=N)NCCc3ccc(F)cc3)c[nH]c12	–	rat Long-Evans, male, brain	intraperitoneal, 10 mg/kg	480
CC1=C(O)C(=O)C=C2C1=CC=C1[C@@]2(C)CC[C@@]2(C)[C@@H]3C[C@](C)(C(=O)O)CC[C@]3(C)CC[C@]12C	–	rat Sprague-Dawley male pups, plasma	intraperitoneal, dose not given	120 to 240
Cc1ccc(S(=O)(=O)Nc2c(N[C@H]3CC[C@H](NC(=O)Nc4ccc(F)c(Cl)c4)CC3)c(=O)c2=O)cc1	–	rat, plasma	intravenous, 10 mg/kg	1.8
COc1c(O[C@@H]2O[C@H](C(=O)O)[C@@H](O)[C@H](O)[C@H]2O)cc(O)c2c(=O)cc(-c3ccccc3)oc12	–	Sprague Dawley rat, plasma	oral, 3.34 g lyophilized powder/kg, low dose	195 ± 137
COC(=O)[C@H]1[C@@H](OC(=O)c2ccccc2)C[C@@H]2CC[C@H]1N2C	LC-MS/MS	Sprague-Dawley rat, male, whole blood	intraperitoneal, 20 mg/kg	14.4 ± 2.12
COC[C@]12CN(C)[C@@H]3[C@@H]4[C@H](OC)[C@H]1[C@@]3([C@@H](OC)C[C@H]2O)[C@@H]1C[C@@]2(O)[C@H](OC(=O)c3ccccc3)[C@@H]1[C@]4(OC(C)=O)[C@@H](O)[C@@H]2OC	–	Sprague-Dawley rat, plasma	oral, dose not given, in PCW extract	55 ± 8.64
O=C(O)CCC(CP(=O)(O)O)C(=O)O (stereo not drawn)	–	Wistar rat, male, dorsal root ganglion	ip, 100 mg/kg	15
COC[C@@]12CC[C@H](OC)[C@]34C(C([C@H](OC)[C@H]13)[C@]1(OC(C)=O)[C@H]3[C@@H](OC(=O)c5ccccc5)[C@](O)(C[C@H]34)[C@@H](OC)[C@@H]1O)N(C)C2	–	Sprague-Dawley rat, plasma	oral, dose not given, with NADES in PCW extract	45
[Se]	–	rat, brain	single dose, sodium selenate	~120
C=CC[N+]1([C@H]2C[C@H]3[C@@H]4CC[C@H]5C[C@H](O)[C@@H](N6CCOCC6)C[C@]5(C)[C@H]4CC[C@]3(C)[C@H]2OC(C)=O)CCCC1	–	Sprague Dawley rat, plasma	intravenous, dose not given, with: sugammadex 5 mg/kg ODD	0
CCN1C[C@]2(COC)[C@H](O)C[C@H](OC)[C@@]34[C@@H]5C[C@@]6(O)[C@H](OC(=O)c7ccccc7)[C@@H]5[C@@](OC(C)=O)([C@@H]([C@H](OC)[C@H]23)[C@@H]14)[C@@H](O)[C@@H]6OC	–	Sprague-Dawley rat, plasma	oral, dose not given, in PCW extract	30
COc1ccc([C@@H]2CC(=O)c3c(O)cc(O[C@@H]4O[C@H](CO[C@@H]5O[C@@H](C)[C@H](O)[C@@H](O)[C@H]5O)[C@@H](O)[C@H](O)[C@H]4O)cc3O2)cc1O	–	Sprague Dawley rat, plasma	oral, 3.34 g lyophilized powder/kg, low dose	14.4 ± 8.4
[2H]C([2H])(c1cc(F)c(F)cc1F)n1c(=O)n(Cc2ncn(C)n2)c(=O)[nH]/c1=N\c1cc2cn(C)nc2cc1Cl	–	Sprague Dawley rat	oral, 25 mg/kg	48
CC(=O)c1c([O-])cc(C)oc1=O.[Na+]	–	rat Wistar female, serum	intragastric, 200 mg/kg	63.6 ± 6.6
CCCCCn1nc(C(=O)Nc2cccc3ccccc23)c2ccccc21	–	rat, plasma	intraperitoneal, 3 mg/kg, mean of 4	15
CC1(C)[C@@H](O[C@H]2O[C@H](C(=O)O)[C@@H](O)[C@H](O)[C@H]2O[C@@H]2O[C@H](C(=O)O)[C@@H](O)[C@H](O)[C@H]2O)CC[C@]2(C)[C@H]3C(=O)C=C4[C@@H]5C[C@@](C)(C(=O)O)CC[C@]5(C)CC[C@@]4(C)[C@]3(C)CC[C@@H]12	–	Sprague Dawley rat, plasma	oral, 10 g lyophilized powder/kg, high dose	412 ± 64.2
Brc1ccc2c(c1)C(c1ccccn1)=NCc1c(-c3cnco3)ncn1-2	–	Sprague-Dawley rat, male, brain	oral, 2 mg/kg	60
CCOC(=O)C1=C[C@@H](OC(CC)CC)[C@H](NC(C)=O)[C@@H](N)C1	non-compartmental analysis	Sprague-Dawley rats, male, plasma	oral, 30 mg/kg, alone	78 ± 30
O=C(O)[C@H]1O[C@@H](Oc2cc3oc(-c4ccc(O)cc4)cc(=O)c3c(O)c2O)[C@H](O)[C@@H](O)[C@@H]1O	–	Sprague Dawley rat, plasma	oral, 10 g lyophilized powder/kg, high dose	361 ± 199
O=[Se](=O)([O-])[O-].[Na+].[Na+]	–	rat	subcutaneous, 0.04 mg/kg	120
COc1ccc([C@@H]2CC(=O)c3c(O)cc(O[C@@H]4O[C@H](CO)[C@@H](O)[C@H](O)[C@H]4O[C@@H]4O[C@@H](C)[C@H](O)[C@@H](O)[C@H]4O)cc3O2)cc1O	–	Sprague Dawley rat, plasma	oral, 3.34 g lyophilized powder/kg, low dose	12.6 ± 9.6
CN1[C@H]2CC[C@@H]1[C@@H](C(=O)O)[C@@H](OC(=O)c1ccccc1)C2	LC-MS/MS	Sprague-Dawley rat, whole blood	intraperitoneal, 20 mg/kg of cocaine	48.9 ± 7.11

A few entries again:
Compound	assay	system	setting	Tmax [min]
COc1c(O[C@@H]2O[C@H](C(=O)O)[C@@H](O)[C@H](O)[C@H]2O)cc(O)c2c(=O)cc(-c3ccccc3)oc12	–	Sprague Dawley rat, plasma	oral, 3.34 g lyophilized powder/kg, low dose	195 ± 137
[Se]	–	rat, brain	single dose, sodium selenate	~120
